Assay results from different studies.
Compare with care: the assays were run in different laboratories.
B1: CXCL11 (UniProt O14625); chain FPMFKRGRCLCIGPGVKAVKVADIEKASIMYPSNNCDKIEVIITLKENKGQRCLNPKSKQARLIIKKVERKNF
B2: erenumab; V domains shown; sequence looked up; VH QVQLVESGGGVVQPGRSLRLSCAASGFTFSSFGMHWVRQAPGKGLEWVAVISFDGSIKYSVDSVKGRFTISRDNSKNTLFLQMNSLRAEDTAVYYCARDRLNYYDSSGYYHYKYYGMAVWGQGTTVTVSS; VL QSVLTQPPSVSAAPGQKVTISCSGSSSNIGNNYVSWYQQLPGTAPKLLIYDNNKRPSGIPDRFSGSKSGTSTTLGITGLQTGDEADYYCGTWDSRLSAVVFGGGTKLTVL
Chain of UniProt P05937 (whole entry, looked up): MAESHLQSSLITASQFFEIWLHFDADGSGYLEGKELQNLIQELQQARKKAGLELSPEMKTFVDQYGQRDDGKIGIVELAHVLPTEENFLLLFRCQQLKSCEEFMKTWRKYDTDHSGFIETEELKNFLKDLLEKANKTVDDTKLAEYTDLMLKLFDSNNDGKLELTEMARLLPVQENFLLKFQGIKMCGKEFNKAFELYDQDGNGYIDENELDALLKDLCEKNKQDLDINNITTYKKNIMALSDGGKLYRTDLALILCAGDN
Chain of UniProt P25156 (whole entry, looked up): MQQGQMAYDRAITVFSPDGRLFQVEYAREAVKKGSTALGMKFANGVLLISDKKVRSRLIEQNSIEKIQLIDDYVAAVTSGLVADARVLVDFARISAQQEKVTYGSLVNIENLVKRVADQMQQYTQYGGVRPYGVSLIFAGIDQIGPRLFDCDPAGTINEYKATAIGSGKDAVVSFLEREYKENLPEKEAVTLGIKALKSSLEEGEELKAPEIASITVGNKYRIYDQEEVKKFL
Chain of UniProt P15043 (whole entry, looked up): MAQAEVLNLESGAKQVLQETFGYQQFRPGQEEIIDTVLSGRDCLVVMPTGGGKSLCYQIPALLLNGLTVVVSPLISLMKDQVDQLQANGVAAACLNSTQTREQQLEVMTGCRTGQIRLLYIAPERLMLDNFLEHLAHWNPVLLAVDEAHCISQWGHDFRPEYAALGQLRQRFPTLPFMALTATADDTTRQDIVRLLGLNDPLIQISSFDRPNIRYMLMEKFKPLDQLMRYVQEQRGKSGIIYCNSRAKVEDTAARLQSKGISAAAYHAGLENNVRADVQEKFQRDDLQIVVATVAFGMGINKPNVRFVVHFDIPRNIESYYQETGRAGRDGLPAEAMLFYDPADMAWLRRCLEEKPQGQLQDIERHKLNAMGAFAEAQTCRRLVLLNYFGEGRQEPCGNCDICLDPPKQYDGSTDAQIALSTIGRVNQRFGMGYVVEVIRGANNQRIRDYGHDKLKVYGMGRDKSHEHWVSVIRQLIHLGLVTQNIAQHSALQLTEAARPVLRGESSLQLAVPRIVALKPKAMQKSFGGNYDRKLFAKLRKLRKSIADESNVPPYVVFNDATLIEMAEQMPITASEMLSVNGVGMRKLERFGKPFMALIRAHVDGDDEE
Chain of UniProt P29218 (whole entry, looked up): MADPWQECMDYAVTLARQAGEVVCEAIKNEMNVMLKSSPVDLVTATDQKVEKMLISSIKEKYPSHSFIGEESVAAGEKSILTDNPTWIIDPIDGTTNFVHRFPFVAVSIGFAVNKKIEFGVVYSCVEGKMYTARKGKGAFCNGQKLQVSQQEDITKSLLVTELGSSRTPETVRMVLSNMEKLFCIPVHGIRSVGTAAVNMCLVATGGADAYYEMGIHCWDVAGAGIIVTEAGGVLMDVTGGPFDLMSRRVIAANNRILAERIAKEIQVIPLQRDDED
Chain of UniProt P0AGE0 (whole entry, looked up): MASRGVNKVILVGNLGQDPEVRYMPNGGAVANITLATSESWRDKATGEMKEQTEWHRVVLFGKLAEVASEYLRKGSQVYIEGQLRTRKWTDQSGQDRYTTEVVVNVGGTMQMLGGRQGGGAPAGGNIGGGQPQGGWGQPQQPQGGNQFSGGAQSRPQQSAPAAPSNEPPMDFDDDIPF
Chain of UniProt P01589 (whole entry, looked up): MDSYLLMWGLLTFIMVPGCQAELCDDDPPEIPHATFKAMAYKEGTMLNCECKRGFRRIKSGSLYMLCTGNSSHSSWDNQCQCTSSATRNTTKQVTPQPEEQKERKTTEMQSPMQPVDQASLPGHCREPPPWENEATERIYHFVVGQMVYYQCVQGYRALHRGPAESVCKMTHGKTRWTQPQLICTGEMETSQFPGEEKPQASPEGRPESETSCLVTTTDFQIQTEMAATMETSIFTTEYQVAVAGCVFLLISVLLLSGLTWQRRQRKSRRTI
Chain of UniProt Q0VDU3 (whole entry, looked up): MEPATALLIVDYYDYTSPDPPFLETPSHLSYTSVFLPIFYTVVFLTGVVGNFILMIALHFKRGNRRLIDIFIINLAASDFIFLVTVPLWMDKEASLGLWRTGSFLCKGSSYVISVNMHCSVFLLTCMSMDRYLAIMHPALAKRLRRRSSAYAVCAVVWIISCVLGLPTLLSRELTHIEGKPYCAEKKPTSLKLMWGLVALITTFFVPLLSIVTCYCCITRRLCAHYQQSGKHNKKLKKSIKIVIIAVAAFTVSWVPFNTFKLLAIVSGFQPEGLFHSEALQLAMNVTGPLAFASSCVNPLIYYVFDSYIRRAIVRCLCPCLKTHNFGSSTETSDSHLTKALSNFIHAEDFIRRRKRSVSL
Chain of UniProt P49682 (whole entry, looked up): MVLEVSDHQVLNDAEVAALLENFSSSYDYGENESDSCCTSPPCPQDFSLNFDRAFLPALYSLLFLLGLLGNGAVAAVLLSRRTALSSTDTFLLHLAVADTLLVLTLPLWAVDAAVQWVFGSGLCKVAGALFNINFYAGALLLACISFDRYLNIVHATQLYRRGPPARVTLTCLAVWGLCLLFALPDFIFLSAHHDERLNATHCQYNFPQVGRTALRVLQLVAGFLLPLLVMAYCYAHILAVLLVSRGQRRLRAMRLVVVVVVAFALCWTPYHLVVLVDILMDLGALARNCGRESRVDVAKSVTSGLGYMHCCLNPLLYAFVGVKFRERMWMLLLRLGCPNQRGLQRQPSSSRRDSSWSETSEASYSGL
Chain of UniProt Q14242 (whole entry, unmodified, looked up): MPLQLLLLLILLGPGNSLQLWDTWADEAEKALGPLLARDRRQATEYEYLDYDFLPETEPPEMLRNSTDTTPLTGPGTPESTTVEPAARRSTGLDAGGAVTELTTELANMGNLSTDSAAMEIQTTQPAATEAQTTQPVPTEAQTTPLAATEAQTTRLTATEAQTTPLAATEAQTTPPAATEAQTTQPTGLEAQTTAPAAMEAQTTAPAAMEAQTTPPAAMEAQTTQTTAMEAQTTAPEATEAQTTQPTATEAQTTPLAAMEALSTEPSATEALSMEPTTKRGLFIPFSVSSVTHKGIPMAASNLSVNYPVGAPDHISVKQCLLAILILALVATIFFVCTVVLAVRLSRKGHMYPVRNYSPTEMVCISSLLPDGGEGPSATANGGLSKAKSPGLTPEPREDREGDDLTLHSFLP
Chain of UniProt O05209 (whole entry, looked up): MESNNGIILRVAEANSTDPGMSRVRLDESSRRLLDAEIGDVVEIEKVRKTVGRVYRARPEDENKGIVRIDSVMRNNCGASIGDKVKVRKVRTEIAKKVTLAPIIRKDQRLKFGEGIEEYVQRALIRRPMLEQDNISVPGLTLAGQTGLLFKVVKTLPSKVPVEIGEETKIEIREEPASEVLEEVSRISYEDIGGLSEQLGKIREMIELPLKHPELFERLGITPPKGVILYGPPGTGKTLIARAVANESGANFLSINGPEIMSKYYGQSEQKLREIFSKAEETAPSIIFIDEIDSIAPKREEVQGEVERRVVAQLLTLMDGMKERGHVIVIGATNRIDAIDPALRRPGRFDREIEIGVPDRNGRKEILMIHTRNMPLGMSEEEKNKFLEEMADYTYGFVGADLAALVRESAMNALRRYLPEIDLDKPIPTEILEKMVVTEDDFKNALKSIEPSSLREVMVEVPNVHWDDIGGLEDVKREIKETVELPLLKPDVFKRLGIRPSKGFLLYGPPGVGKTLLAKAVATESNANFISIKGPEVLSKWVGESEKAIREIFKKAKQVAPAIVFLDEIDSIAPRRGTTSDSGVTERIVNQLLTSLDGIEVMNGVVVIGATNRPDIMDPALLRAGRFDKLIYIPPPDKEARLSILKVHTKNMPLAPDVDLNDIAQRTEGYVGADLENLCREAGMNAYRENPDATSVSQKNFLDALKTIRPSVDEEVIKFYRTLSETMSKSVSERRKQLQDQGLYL
Chain of UniProt O60656 (whole entry, looked up): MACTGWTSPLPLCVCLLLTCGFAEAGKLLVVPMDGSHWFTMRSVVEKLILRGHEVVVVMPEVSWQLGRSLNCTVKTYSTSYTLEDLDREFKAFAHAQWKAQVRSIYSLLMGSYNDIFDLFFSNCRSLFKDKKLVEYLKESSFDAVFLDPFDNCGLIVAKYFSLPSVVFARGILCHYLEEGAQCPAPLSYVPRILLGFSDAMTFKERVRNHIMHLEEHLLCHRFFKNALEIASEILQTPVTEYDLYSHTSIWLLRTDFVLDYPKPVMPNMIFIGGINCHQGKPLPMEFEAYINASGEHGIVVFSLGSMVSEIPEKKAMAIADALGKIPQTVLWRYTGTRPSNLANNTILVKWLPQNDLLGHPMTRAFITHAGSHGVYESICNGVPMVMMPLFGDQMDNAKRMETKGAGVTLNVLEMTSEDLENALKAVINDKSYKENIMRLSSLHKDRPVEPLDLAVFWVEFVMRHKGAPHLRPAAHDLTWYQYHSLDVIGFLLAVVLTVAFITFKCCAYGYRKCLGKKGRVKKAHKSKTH

CALM1 holo (Homo sapiens, UniProt P0DP23) — flavin reduction rate, first phase (Nos1 (Rattus norvegicus, UniProt P29476); optical stopped-flow; CaM pre-incubated, added: NADPH, holo CaM): 313 s⁻¹
B1 (CXCL11) — LogEC50 (CXCR3 (Homo sapiens, UniProt P49682); inhibition of forskolin-raised cAMP, agonist; HEK293): -9.6
CALB1 (Homo sapiens, UniProt P05937) — relative activity (IMPA1 (Homo sapiens, UniProt P29218); enzyme activity, colorimetric phosphate assay; 35 min, 37 °C; reference: wild-type IMPase alone, higher = more activity): 600%
ssb (Escherichia coli, UniProt P0AGE0) — effective affinity ratio (recQ (Escherichia coli, UniProt P15043); active unwinding time fraction, magnetic tweezers; higher = greater): 1.33 ratio
TIMP2 Y90E (Homo sapiens) — inhibition (MMP2 mature, propeptide removed; inhibitor, steady-state kinetics; 15 min, 25 °C; reference: wild-type TIMP-2, higher = stronger inhibition): 5 fold
UGT1A9 (Homo sapiens, UniProt O60656) — Vmax/Km (CCCOC(=O)c1ccc(O)cc1; steady-state kinetics; pH 7.4, 37 °C): 30 µL/min/mg
VAT (Thermoplasma acidophilum, UniProt O05209) — casein degradation (20S proteasome core particle (Thermoplasma acidophilum, UniProt P25156); BODIPY-casein degradation, activator; 100 nM CP, added: ATP; reference: TaCP alone, higher = more fluorescence): 2.5 fold
ribosomes whole ribosome (Rattus norvegicus) — dissociation end response (CRIP3 precursor 22-286 (Zea mays, UniProt P28522); SPR; 60 nM): 10 RU
TPDYLMQAMNDKKLMSSLPNFSGIFNHLERLLDEEISRVRKDMYNDTLNGSTEK (Qki 14-67 C35S/L21A (Mus musculus, UniProt Q9QYS9)) — melting temperature (itself; CD thermal melting; 50 µM): < 15 °C
EPEPRLWVVPGALPQV (C10ORF99 66-81 (Homo sapiens)) — concentration of peak response (GPR15 (Mus musculus, UniProt Q0VDU3); intracellular Ca2+, agonist; peptide, CHO; lower = more potent): 10 nM
SELL (Homo sapiens, UniProt P14151) — mean rolling velocity (SELPLG 42-320 (Homo sapiens, UniProt Q14242); cell rolling; Jurkat; cell type assumed, added: DREG-55 mAb; higher = faster rolling): 112 µm/s
B2 (erenumab) — pKB (CALCR/RAMP1 on cells (Homo sapiens); cAMP production, antagonist, global Gaddum-Schild; antibody, Cos7; added: amylin): 6.59
IGF1 (Homo sapiens, UniProt P05019) — neurite length per neuron (IGF1R (Gallus gallus); neurite growth; embryonic spinal motoneurons; 0.1-10 nM; reference: no hormone, higher = longer): 159 um
IL2 Y45K/E62K (Homo sapiens) — pSTAT5+ Tregs (IL2RA (Homo sapiens, UniProt P01589); flow cytometry; human PBMCs; reference: wildtype IL2, higher = greater reduction): 3000 fold

A few entries again:
CALM1 holo (Homo sapiens, UniProt P0DP23) — flavin reduction rate, first phase (Nos1 (Rattus norvegicus, UniProt P29476); optical stopped-flow; CaM pre-incubated, added: NADPH, holo CaM): 313 s⁻¹
